{"data": "Results of several laboratories", "target": "Amine oxidase [flavin-containing] A (MAOA, Homo sapiens, UniProt P21397)", "mode": "inhibitor", "note": "Lines come from different studies, so protocols differ. pIC50: −log10 of the molar value.", "chain of UniProt P21397 (whole entry, looked up)": "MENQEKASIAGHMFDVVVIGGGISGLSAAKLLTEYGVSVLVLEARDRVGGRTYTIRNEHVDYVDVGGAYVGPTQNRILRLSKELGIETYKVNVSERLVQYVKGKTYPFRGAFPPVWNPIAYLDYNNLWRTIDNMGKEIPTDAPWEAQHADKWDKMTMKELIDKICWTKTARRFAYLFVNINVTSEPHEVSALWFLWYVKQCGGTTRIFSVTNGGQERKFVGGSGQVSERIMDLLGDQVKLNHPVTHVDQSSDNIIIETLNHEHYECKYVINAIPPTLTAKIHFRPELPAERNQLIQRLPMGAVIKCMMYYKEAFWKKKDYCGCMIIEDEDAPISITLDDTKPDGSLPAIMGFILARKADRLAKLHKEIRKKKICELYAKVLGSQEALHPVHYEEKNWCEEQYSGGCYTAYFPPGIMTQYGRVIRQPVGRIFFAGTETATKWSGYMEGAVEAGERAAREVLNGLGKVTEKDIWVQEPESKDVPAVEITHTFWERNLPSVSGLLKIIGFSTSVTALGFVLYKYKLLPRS"}
{"Compound": "O=C1Nc2ccc(Br)cc2/C1=N/N=C/c1cccc(OCc2ccccc2)c1", "effect on": "enzyme activity", "method": "fluorescence", "pIC50": "< 4.40"}
{"Compound": "O=C(/C=C/c1ccc2c(c1)OCO2)c1ccc(Cl)s1", "effect on": "enzyme activity", "method": "fluorescence", "pIC50": "< 4.40"}
{"Compound": "CCC/C=C1\\OC(=O)C2=C1CC[C@H](O)[C@H]2O", "effect on": "enzyme activity", "method": "fluorescence", "pIC50": 3.73}
{"Compound": "COc1cc(OC2OC(COC3OC(CO)C(O)C(OC4OC(CO)C(O)C(O)C4O)C3O)C(O)C(O)C2O)c2c(O)c3c(=O)cc(C)oc3cc2c1 (stereo not drawn)", "effect on": "enzyme activity", "pIC50": 4.08}
{"Compound": "O=C(/C=C/c1ccc2c(c1)OCCO2)c1ccc(Cl)s1", "effect on": "enzyme activity", "method": "fluorescence", "pIC50": "< 4.40"}
{"Compound": "COc1cc(OC2OC(COC3OC(CO)C(O)C(O)C3O)C(O)C(O)C2O)c2c(O)c3c(=O)cc(C)oc3cc2c1 (stereo not drawn)", "effect on": "enzyme activity", "pIC50": "< 4.00"}
{"Compound": "O=C1Nc2ccc(F)cc2/C1=N/N=C/c1cccc(OCc2ccccc2)c1", "effect on": "enzyme activity", "method": "fluorescence", "pIC50": 6.14}
{"Compound": "COc1cc(OC)cc(C(=O)c2cc(C)cc(OC)c2OC)c1", "effect on": "enzyme activity", "method": "fluorescence", "pH": "pH 7.4", "pIC50": 4.96}
{"Compound": "O=C1Nc2ccc(F)cc2/C1=N/N=C/c1ccc(OCc2cccc(F)c2)cc1", "effect on": "enzyme activity", "method": "fluorescence", "pIC50": 4.96}
{"Compound": "COc1cc(C)cc(C2NC(=O)c3c(O)cc(O)cc32)c1OC (racemic)", "effect on": "enzyme activity", "method": "fluorescence", "pH": "pH 7.4", "pIC50": 4.12}
{"Compound": "CCC/C=C1\\OC(=O)C2=C1CCC=C2", "effect on": "enzyme activity", "method": "fluorescence", "pIC50": 5.22}
{"Compound": "O=C(/C=C/c1ccc2c(c1)OCCO2)c1ccc[nH]1", "effect on": "enzyme activity", "method": "fluorescence", "pIC50": "< 4.40"}
{"Compound": "O=C1Nc2ccc(Cl)cc2/C1=N/N=C/c1ccc(OCc2ccccc2)cc1", "effect on": "enzyme activity", "method": "fluorescence", "pIC50": "< 4.40"}
{"Compound": "COc1cc(/C=C/C(=O)O)cc(OC)c1O", "effect on": "enzyme activity", "method": "fluorescence", "pIC50": 4.48}
{"Compound": "COc1cc(OC)c2c(c1)C(c1cc(C)cc(OC)c1OC)NC2=O (racemic)", "time": "20 min", "pH": "pH 7.4", "temperature": "37 °C", "together with": "kynuramine 30 µM", "pIC50": "< 4.00"}
{"Compound": "Cc1cc(O)c2c(c1)C(=O)c1cc(O)c(O)c(O)c1C2=O", "effect on": "enzyme activity", "pIC50": 5.27}
{"Compound": "CCCCC1OC(=O)C2=CCCCC21 (stereo not drawn)", "effect on": "enzyme activity", "method": "fluorescence", "pIC50": 4.10}
{"Compound": "CCOC1(c2cc(C)cc(OC)c2OC)OC(=O)c2c(OC)cc(OC)cc21 (racemic)", "effect on": "enzyme activity", "method": "fluorescence", "pH": "pH 7.4", "pIC50": 4.06}
{"Compound": "Cc1ccc2c(c1)/C(=N/N=C/c1cccc(OCc3ccccc3)c1)C(=O)N2", "effect on": "enzyme activity", "method": "fluorescence", "pIC50": 4.84}
{"Compound": "O=C(/C=C/c1ccc2c(c1)OCCO2)c1ccco1", "effect on": "enzyme activity", "method": "fluorescence", "pIC50": "< 4.40"}
{"Compound": "COc1cc2c(c(OC)c1OC)C(=O)c1c(cc(C)c(OC3OC(CO)C(O)C(O)C3O)c1OC)C2=O (stereo not drawn)", "effect on": "enzyme activity", "pIC50": 3.68}
{"Compound": "O=C1Nc2ccc(Br)cc2/C1=N/N=C/c1ccc(OCc2ccccc2)cc1", "effect on": "enzyme activity", "method": "fluorescence", "pIC50": "< 4.40"}
{"Compound": "COc1c(OC2OC(CO)C(O)C(O)C2O)cc2c(c1O)C(=O)c1c(cc(C)c(O)c1OC)C2=O (stereo not drawn)", "effect on": "enzyme activity", "pIC50": 4.40}
{"Compound": "COc1ccc2c(c1)/C(=N/N=C/c1ccc(OCc3ccccc3)cc1)C(=O)N2", "effect on": "enzyme activity", "method": "fluorescence", "pIC50": "< 4.40"}
{"Compound": "COc1cc(OC)c2c(c1)C(OC)(c1cc(C)cc(OC)c1OC)OC2=O (racemic)", "effect on": "enzyme activity", "method": "fluorescence", "pH": "pH 7.4", "pIC50": 4.41}
{"Compound": "O=C(/C=C/c1ccc2c(c1)OCO2)c1ccc(Br)s1", "effect on": "enzyme activity", "method": "fluorescence", "pIC50": "< 4.40"}
{"Compound": "CCC/C=C1\\OC(=O)c2ccccc21", "effect on": "enzyme activity", "method": "fluorescence", "pIC50": 4.01}
{"Compound": "Cc1cc(O)c2c(c1)C(=O)c1cccc(OC3OC(COC4OC(CO)C(O)C(OC5OC(CO)C(O)C(O)C5O)C4O)C(O)C(O)C3O)c1C2=O (stereo not drawn)", "effect on": "enzyme activity", "pIC50": 3.95}
{"Compound": "COc1cc(O)c2c(c1)C(c1cc(C)cc(OC)c1OC)NC2=O (racemic)", "effect on": "enzyme activity", "method": "fluorescence", "pH": "pH 7.4", "pIC50": 4.75}
{"Compound": "COc1cc(O[C@@H]2O[C@H](CO)[C@@H](O)[C@H](O)[C@H]2O)c2c(O)c3c(=O)cc(C)oc3cc2c1", "effect on": "enzyme activity", "pIC50": "< 4.00"}
{"note": "Repeated from above:"}
{"Compound": "CCC/C=C1\\OC(=O)C2=C1CCC=C2", "effect on": "enzyme activity", "method": "fluorescence", "pIC50": 5.22}
{"Compound": "COc1cc(OC)cc(C(=O)c2cc(C)cc(OC)c2OC)c1", "effect on": "enzyme activity", "method": "fluorescence", "pH": "pH 7.4", "pIC50": 4.96}
{"Compound": "CCC/C=C1\\OC(=O)c2ccccc21", "effect on": "enzyme activity", "method": "fluorescence", "pIC50": 4.01}
{"Compound": "COc1cc(O)c2c(c1)C(c1cc(C)cc(OC)c1OC)NC2=O (racemic)", "effect on": "enzyme activity", "method": "fluorescence", "pH": "pH 7.4", "pIC50": 4.75}
{"Compound": "O=C(/C=C/c1ccc2c(c1)OCCO2)c1ccc[nH]1", "effect on": "enzyme activity", "method": "fluorescence", "pIC50": "< 4.40"}
